Assay results pooled from the literature.
A part holds a random share of what one study measured. Substitutions count along the parent as printed.

Sample 1
Target: Prothrombin, mature alpha-thrombin (F2, Homo sapiens, UniProt P00734)
Method: aptamer microarray, sandwich
Molecule type: DNA with 2'F-ANA
Sample: in vitro
Concentration: 200 nM
Setting: whole 15-mer aptamer, many near background
Added: Cy3 exosite-II aptamer, 400 nM
Direction: higher = stronger binding
Sequence: GGTTGGTGTGGTTGG
For `2'F-ANA at 1 5 8 10 11`, “mean fluorescence intensity” read 49.9 a.u.
For `2'F-ANA at 3 4 5 7 11 13`, “mean fluorescence intensity” read 80.5 a.u.
`2'F-ANA at 1 6 7 10 11 12` — result for “mean fluorescence intensity”: 73.2 a.u.
Under “mean fluorescence intensity”, `2'F-ANA at 2 6 7 8 10 12 13` is recorded as 159 a.u.
`2'F-ANA at 2 3 6 10 11 12 13 14`: “mean fluorescence intensity” 232 a.u.
For `2'F-ANA at 1 2 3 6 7 9`, “mean fluorescence intensity” read 192 a.u.
`2'F-ANA at 1 4 5 8 10 11 12 15` — result for “mean fluorescence intensity”: 67.7 a.u.
For `2'F-ANA at 1 3 5 7 8 12 13 14 15`, “mean fluorescence intensity” read 51.2 a.u.
`2'F-ANA at 1 5 11 13 15`: “mean fluorescence intensity” 47.7 a.u.
`2'F-ANA at 4 7 8 11 13 14`: “mean fluorescence intensity” 102 a.u.
`2'F-ANA at 4 8 12`: “mean fluorescence intensity” 670 a.u.
`2'F-ANA at 3 5 7 8 13 15` — result for “mean fluorescence intensity”: 103 a.u.
Under “mean fluorescence intensity”, `2'F-ANA at 8 9 10 13 14` is recorded as 111 a.u.
For `2'F-ANA at 1 2 3 4 6 9 10 12 13 15`, “mean fluorescence intensity” read 64 a.u.
`2'F-ANA at 1 4 6 7 9 10 12` — result for “mean fluorescence intensity”: 57.3 a.u.

Sample 2
Target: Sal-like protein 4, full length isoform B (SALL4, Homo sapiens, UniProt Q9UJQ4-2, residues 1-616)
Method: universal PBM
Molecule type: double-stranded DNA, one strand shown
Sample: in vitro
Concentration: not given
Setting: 8-mer, flanks averaged, mean of replicates
Direction: higher = stronger binding
Residues (chain): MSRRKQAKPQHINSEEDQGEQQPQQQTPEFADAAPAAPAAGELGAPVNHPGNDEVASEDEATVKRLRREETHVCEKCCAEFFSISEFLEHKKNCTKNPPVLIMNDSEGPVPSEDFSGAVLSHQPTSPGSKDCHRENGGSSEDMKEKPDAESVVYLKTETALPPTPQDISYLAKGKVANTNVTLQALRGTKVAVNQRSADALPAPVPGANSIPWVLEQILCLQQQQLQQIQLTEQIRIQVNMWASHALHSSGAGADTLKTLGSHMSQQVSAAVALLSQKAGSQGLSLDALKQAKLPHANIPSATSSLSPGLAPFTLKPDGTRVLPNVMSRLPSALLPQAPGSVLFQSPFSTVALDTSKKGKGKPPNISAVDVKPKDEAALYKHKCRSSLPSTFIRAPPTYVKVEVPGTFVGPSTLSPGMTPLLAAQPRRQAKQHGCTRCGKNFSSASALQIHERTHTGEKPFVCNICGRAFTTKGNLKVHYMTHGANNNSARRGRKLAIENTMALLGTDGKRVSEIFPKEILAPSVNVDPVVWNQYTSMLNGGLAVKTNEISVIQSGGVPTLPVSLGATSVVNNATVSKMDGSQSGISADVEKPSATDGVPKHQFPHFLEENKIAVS
With `ACGGTGAC` the E-score was -0.143.
For `CCAGCGCG`, the E-score was -0.344.
For `AGTCTGCC`, the E-score was -0.172.
For `CCCGCTGC`, the E-score was -0.0309.
`CTGATACC` has an E-score of 0.061.
With `ATGGCGTC` the E-score was -0.168.
The E-score of `CTGACAGC` is reported as -0.316.
With `TGGCCCCA` the E-score was -0.185.
`CCGGGAAA` has an E-score of -0.164.
For `TAGTATCA`, the E-score was 0.244.
For `GTGCTACA`, the E-score was 0.125.
With `TCAGCTCA` the E-score was -0.161.
`CGCCGTCA` has an E-score of -0.203.
For `AGTCCCAA`, the E-score was -0.112.
The E-score of `CGACAGAG` is reported as -0.259.
`ACGGCACC` has an E-score of -0.308.

Sample 3
Target: CCNB1, cyclin fold, Cln2 fusion (human)
Method: yeast growth competition, sequencing
Sample: yeast
Setting: strong parent motif
Reference: not given
Direction: higher = stronger binding
Parent: MASTL docking peptide (human); PMIAKNLMCELDE; partner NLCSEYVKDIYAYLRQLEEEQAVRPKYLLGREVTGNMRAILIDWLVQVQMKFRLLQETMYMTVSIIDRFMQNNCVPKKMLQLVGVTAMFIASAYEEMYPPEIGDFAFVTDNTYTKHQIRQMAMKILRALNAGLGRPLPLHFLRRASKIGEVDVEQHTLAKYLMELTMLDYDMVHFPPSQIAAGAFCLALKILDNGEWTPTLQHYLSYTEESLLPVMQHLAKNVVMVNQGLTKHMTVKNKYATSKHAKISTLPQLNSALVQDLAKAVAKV
Under “normalised enrichment score”, `L11E` is recorded as 0.387.
For `A4K`, “normalised enrichment score” read 1.63.
Under “normalised enrichment score”, `M8K` is recorded as 0.357.
`A4M` — result for “normalised enrichment score”: 1.3.
`M2R` — result for “normalised enrichment score”: 2.67.
`A4N`: “normalised enrichment score” 1.65.
For `L11K`, “normalised enrichment score” read 0.156.
`N6T` — result for “normalised enrichment score”: 0.413.
Under “normalised enrichment score”, `M2I` is recorded as 2.29.
`N6P` — result for “normalised enrichment score”: 0.0157.
Under “normalised enrichment score”, `M2N` is recorded as 2.53.
For `I3L`, “normalised enrichment score” read 0.981.
For `E10V`, “normalised enrichment score” read 0.904.
Under “normalised enrichment score”, `C9D` is recorded as 2.56.
`K5A`: “normalised enrichment score” 0.146.
For `A4L`, “normalised enrichment score” read 0.204.
`I3R`: “normalised enrichment score” 0.204.

Sample 4
Target: POU domain, class 5, transcription factor 1, POU domain (Pou5f1, Mus musculus, UniProt P20263, residues 131-289)
Sequence of UniProt P20263 (131-289, looked up): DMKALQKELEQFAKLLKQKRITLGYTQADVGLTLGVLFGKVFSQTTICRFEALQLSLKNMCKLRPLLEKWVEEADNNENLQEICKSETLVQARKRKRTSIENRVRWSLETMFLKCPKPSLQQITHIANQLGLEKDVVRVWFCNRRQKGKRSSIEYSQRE
Method: Spec-seq
Molecule type: double-stranded DNA, one strand shown
Sample: in vitro
Concentration: not given
Setting: whole probe, mean of replicates
Reference: not given
Direction: lower = stronger binding
Constant ends, left off below: GAGTCGTCTCGTCAGCAC … CCGTAGAGCACTCAGGTC
For `ATATGTAT`, “relative binding energy” read -0.686 ln ratio.
`ATAACAAT`: “relative binding energy” 0.317 ln ratio.
For `ATGCGACT`, “relative binding energy” read 0.237 ln ratio.
`ATTCGAAT` — result for “relative binding energy”: -0.22 ln ratio.
`ATGCCCTG`: “relative binding energy” 1 ln ratio.
`TATCTAAT`: “relative binding energy” 0.458 ln ratio.
`GTAGTAAT` — result for “relative binding energy”: 0.612 ln ratio.
Under “relative binding energy”, `ATTGCGAT` is recorded as 0.476 ln ratio.
For `ATCAAGAT`, “relative binding energy” read 0.587 ln ratio.
For `ATTATAAT`, “relative binding energy” read -0.632 ln ratio.
For `ATCAATAT`, “relative binding energy” read -0.44 ln ratio.
`TAGATAAT` — result for “relative binding energy”: 0.599 ln ratio.
For `ATGCTCCC`, “relative binding energy” read 0.693 ln ratio.
`ATGCAAAG`: “relative binding energy” -0.524 ln ratio.
For `ATGCCTAC`, “relative binding energy” read 0.32 ln ratio.
For `ATGCGGCC`, “relative binding energy” read 0.517 ln ratio.
`TGTTTAAT` — result for “relative binding energy”: 0.444 ln ratio.

Some of these lines once more (sample 4):
`ATGCCCTG`: “relative binding energy” 1 ln ratio.
For `ATCAAGAT`, “relative binding energy” read 0.587 ln ratio.
`ATAACAAT`: “relative binding energy” 0.317 ln ratio.
`TAGATAAT` — result for “relative binding energy”: 0.599 ln ratio.
`ATTCGAAT` — result for “relative binding energy”: -0.22 ln ratio.
Under “relative binding energy”, `ATTGCGAT` is recorded as 0.476 ln ratio.
